Measurements of several laboratories.
Parts stem from different laboratories: compare values within a part only. Positions count from the first letter of the parent shown.
UniProt Q15139, sequence (whole entry, looked up): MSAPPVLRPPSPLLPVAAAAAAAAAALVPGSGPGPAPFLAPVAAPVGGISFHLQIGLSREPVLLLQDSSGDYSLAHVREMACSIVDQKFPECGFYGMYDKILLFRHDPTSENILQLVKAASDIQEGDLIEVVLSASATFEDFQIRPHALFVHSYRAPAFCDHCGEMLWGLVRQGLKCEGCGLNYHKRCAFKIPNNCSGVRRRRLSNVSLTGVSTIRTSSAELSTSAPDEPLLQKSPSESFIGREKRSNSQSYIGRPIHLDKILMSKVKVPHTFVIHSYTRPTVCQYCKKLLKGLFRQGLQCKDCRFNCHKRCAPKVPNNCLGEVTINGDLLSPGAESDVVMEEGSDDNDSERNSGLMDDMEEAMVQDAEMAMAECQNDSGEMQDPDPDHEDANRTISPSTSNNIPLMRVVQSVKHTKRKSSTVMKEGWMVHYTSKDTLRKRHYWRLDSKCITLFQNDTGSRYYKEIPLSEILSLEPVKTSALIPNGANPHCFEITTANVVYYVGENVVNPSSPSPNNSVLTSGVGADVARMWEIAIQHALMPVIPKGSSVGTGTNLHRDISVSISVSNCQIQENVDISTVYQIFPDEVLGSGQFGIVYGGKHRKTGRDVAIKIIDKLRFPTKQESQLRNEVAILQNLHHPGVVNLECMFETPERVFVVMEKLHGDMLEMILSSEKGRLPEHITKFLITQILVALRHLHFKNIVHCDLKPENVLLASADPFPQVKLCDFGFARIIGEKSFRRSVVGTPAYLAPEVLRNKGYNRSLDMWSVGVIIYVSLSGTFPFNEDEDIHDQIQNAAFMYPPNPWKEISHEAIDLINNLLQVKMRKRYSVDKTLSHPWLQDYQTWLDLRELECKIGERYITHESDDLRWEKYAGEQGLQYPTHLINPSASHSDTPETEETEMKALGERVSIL
UniProt O15264, sequence (whole entry, looked up): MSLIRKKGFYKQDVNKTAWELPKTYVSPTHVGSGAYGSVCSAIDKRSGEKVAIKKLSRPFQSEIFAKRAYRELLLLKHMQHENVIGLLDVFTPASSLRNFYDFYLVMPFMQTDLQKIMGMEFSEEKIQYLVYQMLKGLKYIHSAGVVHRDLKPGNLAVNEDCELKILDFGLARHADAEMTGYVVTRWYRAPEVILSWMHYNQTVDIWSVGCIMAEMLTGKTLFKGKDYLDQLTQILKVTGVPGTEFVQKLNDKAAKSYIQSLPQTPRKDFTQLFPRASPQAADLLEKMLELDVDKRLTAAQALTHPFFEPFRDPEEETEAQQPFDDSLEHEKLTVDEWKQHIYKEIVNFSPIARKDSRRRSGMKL
UniProt P07949, sequence (whole entry, unmodified, looked up): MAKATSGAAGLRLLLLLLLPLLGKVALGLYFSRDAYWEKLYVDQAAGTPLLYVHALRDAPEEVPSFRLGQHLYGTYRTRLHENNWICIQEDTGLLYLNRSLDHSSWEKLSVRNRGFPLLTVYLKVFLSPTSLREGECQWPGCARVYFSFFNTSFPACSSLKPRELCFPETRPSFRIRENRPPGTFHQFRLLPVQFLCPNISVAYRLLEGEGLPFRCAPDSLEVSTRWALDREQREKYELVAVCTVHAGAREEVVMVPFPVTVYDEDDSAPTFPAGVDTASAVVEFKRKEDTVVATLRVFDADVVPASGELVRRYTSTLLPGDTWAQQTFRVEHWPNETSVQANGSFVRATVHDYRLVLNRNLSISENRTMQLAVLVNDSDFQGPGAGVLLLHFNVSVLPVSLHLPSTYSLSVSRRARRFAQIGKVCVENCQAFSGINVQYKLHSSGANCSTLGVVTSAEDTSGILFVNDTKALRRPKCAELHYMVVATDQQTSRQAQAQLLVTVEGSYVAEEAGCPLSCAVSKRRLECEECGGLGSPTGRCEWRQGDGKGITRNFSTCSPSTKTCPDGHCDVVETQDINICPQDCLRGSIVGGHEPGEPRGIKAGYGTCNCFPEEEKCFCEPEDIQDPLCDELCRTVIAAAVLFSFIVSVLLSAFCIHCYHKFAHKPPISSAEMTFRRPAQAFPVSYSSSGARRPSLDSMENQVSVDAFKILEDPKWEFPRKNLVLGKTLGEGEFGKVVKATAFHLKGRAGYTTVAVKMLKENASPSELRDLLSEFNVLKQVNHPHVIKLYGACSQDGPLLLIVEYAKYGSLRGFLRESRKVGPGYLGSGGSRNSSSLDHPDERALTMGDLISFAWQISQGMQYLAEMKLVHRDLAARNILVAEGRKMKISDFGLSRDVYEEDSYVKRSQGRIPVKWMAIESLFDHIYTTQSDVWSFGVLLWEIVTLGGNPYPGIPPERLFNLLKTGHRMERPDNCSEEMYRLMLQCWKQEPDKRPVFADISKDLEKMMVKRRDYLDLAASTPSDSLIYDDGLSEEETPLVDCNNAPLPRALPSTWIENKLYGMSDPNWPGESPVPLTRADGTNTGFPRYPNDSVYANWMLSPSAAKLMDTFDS
UniProt P57058, sequence (whole entry, looked up): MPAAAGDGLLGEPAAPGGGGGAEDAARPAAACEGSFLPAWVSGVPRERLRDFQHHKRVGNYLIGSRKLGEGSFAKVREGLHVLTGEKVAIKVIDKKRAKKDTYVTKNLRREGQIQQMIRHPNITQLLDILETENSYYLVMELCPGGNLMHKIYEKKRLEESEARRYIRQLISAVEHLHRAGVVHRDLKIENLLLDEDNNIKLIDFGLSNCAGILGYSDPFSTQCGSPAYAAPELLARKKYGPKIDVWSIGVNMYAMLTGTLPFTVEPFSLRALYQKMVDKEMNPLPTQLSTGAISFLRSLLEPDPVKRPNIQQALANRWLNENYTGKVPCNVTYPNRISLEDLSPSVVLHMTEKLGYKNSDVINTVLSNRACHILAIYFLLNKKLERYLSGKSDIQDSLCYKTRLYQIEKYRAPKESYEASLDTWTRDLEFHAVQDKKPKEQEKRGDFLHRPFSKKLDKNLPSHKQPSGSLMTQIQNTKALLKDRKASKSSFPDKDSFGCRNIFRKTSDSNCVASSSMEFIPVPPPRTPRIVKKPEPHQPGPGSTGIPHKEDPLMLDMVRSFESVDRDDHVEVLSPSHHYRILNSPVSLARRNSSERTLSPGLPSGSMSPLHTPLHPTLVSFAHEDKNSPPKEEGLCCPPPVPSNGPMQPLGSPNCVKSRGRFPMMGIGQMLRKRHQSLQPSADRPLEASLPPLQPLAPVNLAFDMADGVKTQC
UniProt Q7KZI7, sequence (whole entry, looked up): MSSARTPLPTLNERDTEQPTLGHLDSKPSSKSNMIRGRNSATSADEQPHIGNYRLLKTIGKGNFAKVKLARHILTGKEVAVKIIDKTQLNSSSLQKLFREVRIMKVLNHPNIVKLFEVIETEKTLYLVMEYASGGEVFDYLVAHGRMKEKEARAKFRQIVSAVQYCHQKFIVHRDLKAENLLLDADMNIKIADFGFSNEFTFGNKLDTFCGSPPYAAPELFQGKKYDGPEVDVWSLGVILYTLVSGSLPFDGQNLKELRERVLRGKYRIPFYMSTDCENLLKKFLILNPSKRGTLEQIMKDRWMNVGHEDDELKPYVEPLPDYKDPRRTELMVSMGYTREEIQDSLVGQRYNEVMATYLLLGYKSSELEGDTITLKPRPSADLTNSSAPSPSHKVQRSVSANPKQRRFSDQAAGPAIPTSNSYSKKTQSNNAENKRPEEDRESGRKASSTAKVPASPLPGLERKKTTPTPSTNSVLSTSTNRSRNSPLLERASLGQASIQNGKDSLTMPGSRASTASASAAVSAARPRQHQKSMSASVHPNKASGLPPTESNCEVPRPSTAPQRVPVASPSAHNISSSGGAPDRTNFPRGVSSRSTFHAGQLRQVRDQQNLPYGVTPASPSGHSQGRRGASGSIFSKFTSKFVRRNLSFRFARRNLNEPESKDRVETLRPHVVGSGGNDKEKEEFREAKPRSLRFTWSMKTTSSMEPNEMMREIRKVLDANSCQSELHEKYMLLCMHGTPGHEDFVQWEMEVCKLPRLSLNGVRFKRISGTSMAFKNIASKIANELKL
UniProt P68400, sequence (whole entry, looked up): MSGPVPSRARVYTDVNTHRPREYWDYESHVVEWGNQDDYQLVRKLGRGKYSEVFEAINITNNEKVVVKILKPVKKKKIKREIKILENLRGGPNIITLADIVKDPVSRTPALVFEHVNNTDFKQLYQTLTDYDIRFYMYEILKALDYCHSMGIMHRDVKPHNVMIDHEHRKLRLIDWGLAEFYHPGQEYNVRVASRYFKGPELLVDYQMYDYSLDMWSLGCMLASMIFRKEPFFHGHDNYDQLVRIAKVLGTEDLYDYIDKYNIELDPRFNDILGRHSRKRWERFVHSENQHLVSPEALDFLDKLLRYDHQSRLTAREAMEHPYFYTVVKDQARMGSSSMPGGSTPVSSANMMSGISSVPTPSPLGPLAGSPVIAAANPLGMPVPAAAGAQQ
UniProt Q16816, sequence (whole entry, looked up): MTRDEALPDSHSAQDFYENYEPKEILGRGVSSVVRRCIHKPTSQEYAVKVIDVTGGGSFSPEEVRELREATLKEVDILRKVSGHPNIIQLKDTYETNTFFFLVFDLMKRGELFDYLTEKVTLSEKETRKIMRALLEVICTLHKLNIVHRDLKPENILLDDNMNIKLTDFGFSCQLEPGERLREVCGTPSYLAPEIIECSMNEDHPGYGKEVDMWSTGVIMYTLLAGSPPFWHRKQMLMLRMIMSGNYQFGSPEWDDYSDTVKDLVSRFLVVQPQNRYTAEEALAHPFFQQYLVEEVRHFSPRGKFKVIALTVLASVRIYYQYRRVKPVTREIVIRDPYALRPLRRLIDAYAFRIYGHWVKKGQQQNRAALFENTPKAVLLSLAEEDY

Block 1 — method: RNA Bind-n-Seq; form: RNA; medium: in vitro; concentration: not given; reference: input RNA pool; direction: higher = stronger binding
Target: RING finger protein unkempt homolog, zinc fingers 1-6, GST-SBP tag (UNK, Homo sapiens, UniProt Q9C0B0, residues 30-357)
UniProt Q9C0B0, sequence (30-357, looked up): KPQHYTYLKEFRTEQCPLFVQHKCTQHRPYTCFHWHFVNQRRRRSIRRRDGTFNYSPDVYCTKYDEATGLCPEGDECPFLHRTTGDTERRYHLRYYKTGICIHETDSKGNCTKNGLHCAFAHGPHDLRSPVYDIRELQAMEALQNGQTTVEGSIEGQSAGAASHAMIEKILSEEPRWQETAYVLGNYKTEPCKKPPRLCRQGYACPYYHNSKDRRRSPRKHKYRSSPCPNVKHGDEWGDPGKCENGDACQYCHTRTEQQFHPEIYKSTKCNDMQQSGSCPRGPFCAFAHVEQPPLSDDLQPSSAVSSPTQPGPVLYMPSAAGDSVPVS
Notes: RNA with constant flanks, human and mouse sites, ends assumed
Constant ends, left off below: GGGAGUUCUACAGUCCGACGAUC … CAACAGAGGAUUGAGCAUCA
Sequence	bound/input enrichment
GAAGAAAUUUUUACUUCACUUGCAAGAUUACCAACUAGCAAGAGAAGUUUAAGGAAUUUCAGGUUAAAUAGUAGUGAUGUGGAUGGAGAACCUAUGUAUAUUCAGAUGGUUACAGCUCUA	0.239 ratio
GAGGCCUGGGGGACCCCUGGCUCUGGGCCGGGCCUGGGGCUCCGAAAUUCCAAGGCCCAGACUUGCGGGGGGUGGGGGGGUAUCCAGAAUUGGUUGUAAAUACUUUGCAUAUUGUCUGAU	0.325 ratio
AACCAUCAGGAAGGAACAUCUAGUGAUGAUGAACUGCCUUCAGCAGAGAUGAUUGACUUCCAAAAAAGCCAAGGUGACAUUUUACAGAAACAGAAGAAAGUUUUUGAAGAAGUGCAAGAU	0.12 ratio
GGGACAAUUCAUCUCUUUCGAAAACCACAAAGAUCCUUUUUUGGCAAGUUGUUACGGGAAUUUAGACUUGUAGCAGCUGACCGAAGGUCCUGGAAGAUACUGCUCUUUGGUGUAAUAAAC	0.185 ratio
UCUACGAGAAAUUACGACUUUGCAUGGAGAAAGUUGACCAGAAAGCUCCAGAAUACAUCAGGAUGGCAGCAUCAUUAAAUGCUGGGGAGACAACCUACAGUCUGGAACAUGCCAGUGACC	0.194 ratio
AGCCUCCAGAAGACCCCUACAAUGAGAGGCCUGGGGUCUGCAAGUCGCUGCUAGAAUUUUUUAAAGAAUGCAGCACCAACACAGAUUUGUAAGGUCCCUGGGCGCAUGCUGAACGCGCGU	0.219 ratio
UCCAGUACGGCAGCCCCAUCAGGGGCUGGGAAUGUGGCUUCAGGCUCAGGGAAUAACUCGGGGGGACCCAGCCUCUUGGUGCCACUGCCUGUAAAUCCCCCCAGUUCUCCAACGCCCAGC	0.139 ratio
GCAGAGCUUGAUACACUGAACGAAGACUCCUACAAAGACAGCACCCUCAUCAUGCAGUUGCUUAGAGACAACUUAACAUUAUGGACAUCAGACAGUGCAGGAGAAGAAUGUGAUGCAGCA	0.348 ratio

Block 2 — observed: cell-free assay; method: competition with immobilised ligand; concentration: 1 µM
SMILES: COc1ccc2c(O[C@@H]3C[C@H]4C(=O)N[C@]5(C(=O)O)CC5/C=C\CCCCC[C@H](NC(=O)OC5CCCC5)C(=O)N4C3)cc(-c3csc(NC(=O)C(C)C)n3)nc2c1C (some centres unmarked)
target	remaining binding [%]
HUNK (Homo sapiens, UniProt P57058)	100
STK33 (Homo sapiens, UniProt Q9BYT3)	54
PHKG1 (Homo sapiens, UniProt Q16816)	96
PRKD1 (Homo sapiens, UniProt Q15139)	89
EPHB4 (Homo sapiens, UniProt P54760)	100
STK26 (Homo sapiens, UniProt Q9P289)	95
PRKCH (Homo sapiens, UniProt P24723)	100
Tyrosine-protein kinase JAK1, JH1 (JAK1, Homo sapiens, UniProt P23458)	100
RET (Homo sapiens, UniProt P07949, V804L)	95
MARK2 (Homo sapiens, UniProt Q7KZI7)	100

Block 3 — Compound: Clc1ccc(Nc2nnc(Cc3ccncc3)c3ccccc23)cc1; observed: enzyme activity; action: inhibitor; concentration: 0.5 µM; reference: control
target	remaining activity [%]
PLK2 (Homo sapiens, UniProt Q9NYY3)	101
MAPK13 (Homo sapiens, UniProt O15264)	88.9
CSNK2A1 (Homo sapiens, UniProt P68400)	114
STK38 (Homo sapiens, UniProt Q15208)	100

Block 4 — target: CCNB2, cyclin fold, Cln2 fusion (human); method: yeast growth competition, sequencing; medium: yeast; notes: weak parent motif; reference: not given; direction: higher = stronger binding
Parent: WEE1 docking peptide (human); CTLRQKLIFSPCS; partner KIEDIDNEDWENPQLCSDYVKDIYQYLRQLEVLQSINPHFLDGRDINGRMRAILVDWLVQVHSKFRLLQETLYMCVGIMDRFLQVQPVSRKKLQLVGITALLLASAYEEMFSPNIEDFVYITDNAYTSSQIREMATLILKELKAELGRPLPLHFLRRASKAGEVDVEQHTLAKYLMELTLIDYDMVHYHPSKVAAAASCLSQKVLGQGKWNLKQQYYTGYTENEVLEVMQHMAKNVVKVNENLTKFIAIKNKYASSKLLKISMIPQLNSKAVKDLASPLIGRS
Variant	normalised enrichment score
CALRQKLIFSPCS [T2A]	0.682
ATLRQKLIFSPCS [C1A]	0.661
CTLRQKLIFAPCS [S10A]	0.58
CTLRQKLAFSPCS [I8A]	0.705
CTLRQKLIFSPAS [C12A]	0.33
CTLRQALIFSPCS [K6A]	-0.138
CTLAQKLIFSPCS [R4A]	0.257

Excerpt of the above (block 4):
Variant	normalised enrichment score
CTLRQKLAFSPCS [I8A]	0.705
CALRQKLIFSPCS [T2A]	0.682
